Results of several laboratories.
Numbered parts are unrelated; each lists some results of a single study.

Series 1
Target: Interferon regulatory factor 5, full length, phosphomimetic (IRF5, Homo sapiens, UniProt Q13568-2, residues 1-514, K96S/S451D/S453D/S456D/S462D)
Technique: protein-binding microarray
Form: double-stranded DNA, one strand shown
Matrix: in vitro
Tested at: 250 nM
Setting: 60-bp whole probe
With: salmon DNA 0.4 mg/ml
Baseline: random background probes
Reading: higher = stronger binding
Constant ends, left off below: GCCTAGCAC … GTCTTGATTCGCTTGACGCTGCTG
`GACGGTTTCGACTTTCGGGCCGTGCTA` gave a log fluorescence of 7.71 z-score.
For `GGTCCTTTCTGCCTCAGAGGGTGCTAG`, the log fluorescence was 1.64 z-score.
For `GACGGTCTCGGTCTCGGGAGGTGCTAG`, the log fluorescence was 0.131 z-score.
With `GACGATTTCGGGTTTCGAGCCGTGCTA` the log fluorescence was 3.99 z-score.
`CTAGATATCGGGTATCGATTAGTGCTA` gave a log fluorescence of 5.68 z-score.
`TTAGATTTCAGCATCGATTAGTGCTAG` gave a log fluorescence of 1.69 z-score.

Series 2
Target: Sal-like protein 4, full length isoform B (SALL4, Homo sapiens, UniProt Q9UJQ4-2, residues 1-616)
Technique: universal PBM
Form: double-stranded DNA, one strand shown
Matrix: in vitro
Tested at: not given
Setting: 8-mer, flanks averaged, mean of replicates
Reading: higher = stronger binding
`CAGTGTCA` gave an E-score of -0.0166.
The E-score of `GTGCGGAA` is reported as -0.018.
`CACATGCG` has an E-score of -0.179.
With `GGAATTGA` the E-score was 0.117.
The E-score of `ATGAGCTA` is reported as 0.121.
For `ATTACGTG`, the E-score was 0.101.
For `TAGTGTAA`, the E-score was 0.259.
`TGGCTCAA` has an E-score of -0.125.

Series 3
Target: Prothrombin, mature alpha-thrombin (F2, Homo sapiens, UniProt P00734)
Technique: aptamer microarray, sandwich
Form: DNA with 2'F-ANA
Matrix: in vitro
Tested at: 200 nM
Setting: whole 15-mer aptamer, many near background
With: Cy3 exosite-II aptamer, 400 nM
Reading: higher = stronger binding
Oligonucleotide: GGTTGGTGTGGTTGG
For `2'F-ANA at 3 4 6 8 9 13`, “mean fluorescence intensity” read 425 a.u.
For `2'F-ANA at 2 4 7 10 11 13`, “mean fluorescence intensity” read 113 a.u.
`2'F-ANA at 1 2 3 7 10 12 13` — result for “mean fluorescence intensity”: 88.7 a.u.
For `2'F-ANA at 1 3 4 6 8 9 11 14 15`, “mean fluorescence intensity” read 63.2 a.u.
`2'F-ANA at 2 3 4 7 8 11 12 13 15`: “mean fluorescence intensity” 692 a.u.
Under “mean fluorescence intensity”, `2'F-ANA at 2 3 5 6 7 8 10 12 14 15` is recorded as 55.7 a.u.
`2'F-ANA at 1 2 4 6 8 11 14`: “mean fluorescence intensity” 102 a.u.
For `2'F-ANA at 1 2 3 4 7 8 10 12 14`, “mean fluorescence intensity” read 51.8 a.u.

Other studies, line by line
For `PhoQ, residues 284 288 289 292 302 303 ALVSVA`, the fold induction was 9.19 (PhoP, residues 12 14 15 18 19 NQFFI (Escherichia coli, UniProt P23836); Sort-seq, measured: YFP reporter; E. coli; PhoQ-PhoP variant library, with: 10 µM Mg2+; baseline: high Mg2+ state, higher = stronger signaling).

Excerpt of the above (series 2):
The E-score of `ATGAGCTA` is reported as 0.121.
For `ATTACGTG`, the E-score was 0.101.
